Published values gathered from unrelated publications.
Parts stem from different laboratories: compare values within a part only. Positions count from the first letter of the parent shown.
Sequence of UniProt Q15819 (whole entry, looked up): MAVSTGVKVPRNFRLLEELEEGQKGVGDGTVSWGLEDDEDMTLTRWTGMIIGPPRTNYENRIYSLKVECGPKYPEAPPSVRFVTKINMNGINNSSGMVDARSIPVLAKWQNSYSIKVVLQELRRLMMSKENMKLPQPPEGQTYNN
Sequence of UniProt O14933 (whole entry, looked up): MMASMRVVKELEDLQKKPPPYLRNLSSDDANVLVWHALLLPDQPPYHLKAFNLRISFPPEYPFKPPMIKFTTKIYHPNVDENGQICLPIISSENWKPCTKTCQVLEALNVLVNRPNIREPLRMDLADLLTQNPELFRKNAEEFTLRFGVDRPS
Sequence of UniProt Q13404 (whole entry, looked up): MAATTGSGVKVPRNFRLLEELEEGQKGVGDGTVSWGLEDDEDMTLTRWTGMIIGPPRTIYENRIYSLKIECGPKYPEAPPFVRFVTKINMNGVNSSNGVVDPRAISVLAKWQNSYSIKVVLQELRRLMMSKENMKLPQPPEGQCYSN
Sequence of UniProt P51965 (whole entry, looked up): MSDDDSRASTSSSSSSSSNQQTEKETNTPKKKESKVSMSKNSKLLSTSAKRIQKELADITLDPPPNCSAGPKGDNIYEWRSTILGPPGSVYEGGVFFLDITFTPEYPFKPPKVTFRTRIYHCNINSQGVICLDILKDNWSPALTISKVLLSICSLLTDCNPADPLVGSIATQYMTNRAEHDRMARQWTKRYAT
Sequence of UniProt Q8WVN8 (whole entry, looked up): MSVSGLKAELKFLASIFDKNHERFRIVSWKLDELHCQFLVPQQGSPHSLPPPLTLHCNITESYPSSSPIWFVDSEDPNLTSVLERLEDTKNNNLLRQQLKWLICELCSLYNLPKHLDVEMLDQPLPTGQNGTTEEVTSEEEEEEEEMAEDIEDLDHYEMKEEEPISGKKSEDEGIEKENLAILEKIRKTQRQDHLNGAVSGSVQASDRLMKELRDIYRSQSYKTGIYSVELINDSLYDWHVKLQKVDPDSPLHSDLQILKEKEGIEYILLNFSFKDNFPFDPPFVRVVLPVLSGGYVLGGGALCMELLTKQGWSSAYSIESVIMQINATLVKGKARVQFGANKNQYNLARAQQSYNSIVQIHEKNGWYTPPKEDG

Set 1 — technique: RNA Bind-n-Seq; form: RNA; sample: in vitro; concentration: 20 nM; notes: 6-mer, flanks averaged, single round; with: 150 mM KCl; reference: input library; reading: higher = stronger binding
Target: TAR DNA-binding protein 43, full length, His tag (TARDBP, Homo sapiens, UniProt Q13148, residues 1-414)
Strand	6-mer enrichment (R)
GUUCGU	0.732
ACGUAU	0.675
AGAAAA	0.693
GGGACA	2.2
AGGACA	0.889
UGAAAG	1
AUUUAU	0.635
GGGUAG	4.09

Set 2 — technique: universal PBM; form: double-stranded DNA, one strand shown; sample: in vitro; concentration: not given; reading: higher = stronger binding
Target: Sal-like protein 4, full length isoform B (SALL4, Homo sapiens, UniProt Q9UJQ4-2, residues 1-616)
Notes: 8-mer, flanks averaged, mean of replicates
Strand	E-score
ACAAGTAG	0.075
CTAAAGAG	-0.0726
TCCTCAAA	0.14
TATCTTAA	0.275
AACTCATT	0.0688
CTCTGAGC	-0.295
AACTACGA	0.168
CTCCAGCA	-0.0848

Set 3 — Molecule: B1 (TRIM31 RING domain); technique: yeast two-hybrid; sample: yeast; notes: mostly zero background; reference: not given; reading: higher = stronger interaction
B1: TRIM31 RING domain (UniProt Q9BZY9); chain FVNKLQEEVICPICLDILQKPVTIDCGHNFCLKCITQIGETSCGFFKCPLCKTSVRKNAIRF
target	lacZ reporter activity
UBE2V2 UBC core domain (UniProt Q15819)	0
UBE2Q2 UBC core domain (UniProt Q8WVN8)	0
UBE2V1 UBC core domain (UniProt Q13404)	0
UBE2E1 UBC core domain (UniProt P51965)	0
UBE2L6 UBC core domain (UniProt O14933)	0

Single results of other studies — starting sequence: viral docking peptide; KGVKRKLFAEDSS
Variant	target	test	system	conditions	scale	measurement	result
KGMKRKLFAEDSS [V3M]	CCNE1, cyclin fold, Cln2 fusion (human)	yeast growth competition, sequencing	yeast	strong parent motif	reference: not given, higher = stronger binding	normalised enrichment score	1.68
